Results of several laboratories.
Every numbered part comes from another study and shows a few of its results, in no order. Positions count from the first letter of the parent shown.

Study 1
Target: TAR DNA-binding protein 43, full length, His tag (TARDBP, Homo sapiens, UniProt Q13148, residues 1-414)
Technique: RNA Bind-n-Seq
Molecule type: RNA
Matrix: in vitro
Tested at: 20 nM
Notes: 6-mer, flanks averaged, single round
With: 150 mM LiCl
Baseline: input library
Direction: higher = stronger binding
Strand | 6-mer enrichment (R)
UGGGCG | 1.18
GUCUGA | 0.925
UACCGA | 0.832
ACACUU | 0.89
CUCUAU | 0.923
AGUCCU | 0.857
CCACGC | 0.926
UAAUUA | 1.08

Study 2
Target: Sox, HMG box (Pigoraptor chileana)
Technique: Spec-seq
Molecule type: double-stranded DNA, one strand shown
Matrix: in vitro
Tested at: not given
Notes: whole probe, mean of replicates
Baseline: not given
Direction: lower = stronger binding
Constant ends, left off below: GAGTCGTCTCGTCAGCAC … CCGTAGAGCACTCAGGTC
Construct (chain): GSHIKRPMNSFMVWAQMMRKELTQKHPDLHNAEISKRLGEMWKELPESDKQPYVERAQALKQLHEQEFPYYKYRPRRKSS
Strand | relative binding energy [ln ratio]
CATAGAA | -0.697
CATGTAG | 0.512
GAATGTT | 0.369
TAAAGTT | 0.292
CATGGGG | 0.73
ATCCGTT | 0.399
ACAGGTT | -0.0314
GGAGGTT | 1.59

Single results of other studies
P1: viral docking peptide; TSVRRALFTGGSD; partner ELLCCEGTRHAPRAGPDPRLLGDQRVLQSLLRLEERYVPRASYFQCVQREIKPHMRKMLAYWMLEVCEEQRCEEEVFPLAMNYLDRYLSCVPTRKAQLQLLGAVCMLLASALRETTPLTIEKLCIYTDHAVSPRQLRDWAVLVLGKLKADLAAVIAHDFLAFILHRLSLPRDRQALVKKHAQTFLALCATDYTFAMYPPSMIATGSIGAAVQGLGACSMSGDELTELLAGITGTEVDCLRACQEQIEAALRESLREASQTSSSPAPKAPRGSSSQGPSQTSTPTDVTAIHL
P2: PafA, mature enzyme, eGFP fusion (Elizabethkingia meningoseptica, UniProt Q9KJX5); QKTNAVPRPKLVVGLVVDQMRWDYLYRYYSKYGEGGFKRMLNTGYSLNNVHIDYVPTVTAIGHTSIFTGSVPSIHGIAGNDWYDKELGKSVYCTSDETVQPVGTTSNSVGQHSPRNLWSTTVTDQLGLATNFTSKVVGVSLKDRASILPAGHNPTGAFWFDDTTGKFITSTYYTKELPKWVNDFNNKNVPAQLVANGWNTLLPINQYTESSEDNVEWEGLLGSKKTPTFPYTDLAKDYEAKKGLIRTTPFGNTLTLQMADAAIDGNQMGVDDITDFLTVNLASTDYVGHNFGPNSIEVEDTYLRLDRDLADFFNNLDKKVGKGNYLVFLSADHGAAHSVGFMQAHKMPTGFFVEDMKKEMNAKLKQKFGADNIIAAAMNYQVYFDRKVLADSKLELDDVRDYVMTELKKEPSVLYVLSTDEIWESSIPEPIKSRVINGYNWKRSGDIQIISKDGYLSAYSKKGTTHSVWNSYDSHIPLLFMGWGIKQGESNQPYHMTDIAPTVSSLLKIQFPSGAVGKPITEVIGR
Substance | tested on | assay | system | setting | scale | measurement | value
P1 T9C | CCND3, cyclin fold, Cln2 fusion (human) | yeast growth competition, sequencing | yeast | weak parent motif | baseline: not given, higher = stronger binding | normalised enrichment score | -0.0546
P2 K224G | tungstate, free oxyanion | microfluidic competitive inhibition | in vitro, cell-free expressed | not given, derived from inhibition constants, unchanged parent 2230 nM | lower = stronger binding | oxyanion analog dissociation constant | 1.87 µM
HSP90AB1 (Homo sapiens, UniProt P08238) | HSP90AB2P (Homo sapiens, UniProt Q58FF8) | cross-linking MS | – | hits only | – | interaction screen | cross-linked
